Experimental data of several laboratories.
Every numbered part comes from another study and shows a few of its results, in no order. Positions count from the first letter of the parent shown.

Study 1 — method: RNA Bind-n-Seq; molecule type: RNA; sample: in vitro; tested at: 365 nM; relative to: no-protein control; direction: higher = stronger binding
Target: RNA binding protein fox-1 homolog 2, RRM domain, GST-SBP tag (RBFOX2, Homo sapiens, UniProt O43251-10, residues 100-194)
Setting: natural RNA segment, single round, ends assumed
Shared flanks, not repeated: GGGAGUUCUACAGUCCGACGAUC … UGGAAUUCUCGGGUGCCAA
Residues (chain): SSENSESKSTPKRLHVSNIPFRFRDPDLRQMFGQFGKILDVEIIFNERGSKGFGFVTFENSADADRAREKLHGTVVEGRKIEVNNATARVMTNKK
`AGGGCAGGGCCUGGGGAGGGUGGCCUGUCCAGUCCUGCAGACAAGGGGAGGCCUGACAGAGCCCAAGAAUGAGGACACCCUCGGCACGGGAACCCAUUCACUUAGCGUUU`: “RBNS enrichment (R)” 0.408.
`CUGAGCACCAAUCCCAGGUUUGUACCCUUUCCCCUAAUCUGUUUUUAGAUUUGAUCUAGGUUGCCUCAAUAGCCUUGGGUGUUUUAUUUAAAUGAAGAGGGGAAUAAACA` — result for “RBNS enrichment (R)”: 0.226.
`CCGACAGUGGCGUAAACAGGAGACAUCACCCUAUACUGCGAAACUACAGAAAGGAAGACAGCUUGGCCCAGCGGGCUGAAGUUCAGAAUUCACUAGGUAGUUGUUGUUGG`: “RBNS enrichment (R)” 0.296.
`GUUUGUUUUUGAAUGCCCUGUUUUCAUAGAAUCCUAUCCUCUCAGAUGGUGGAAUCUUUGGGGAAACUUUAAAGUAACUAAUUUUUAUUUAAAAAAAAAAUCUCGGCAGA` — result for “RBNS enrichment (R)”: 1.59.
Under “RBNS enrichment (R)”, `UCAGCACAAGCUAGGGGAGAUCCUACCAACACUGAUAGGUCAGUCAUUGAUGGCAAUUUGAAUGUGGGUAUUACUCUGUGAGCCACCCUGCUUCGCUUGUUUGUAAGGAG` is recorded as 1.16.
For `GGAGCCAGACAUUGGGAUGCACGCAUGUGAUUGUGUGUGCACGCAUGUGUGUGUGUGCACGCACUGGGCUGGGCCAAGUGACUGGACUCGCUUGGGAAACGGGCAGUGGU`, “RBNS enrichment (R)” read 9.86.
`ACAGAUAUUUCUGAGUGGUGGAAUCAGGUUUUCUAUGUUCUGCUUUAAAGCCUGGAGUCUGUUAGAUUAACUACCAAAUAGGAAGCAGCCAUGGAGGUUAUUGCCUGCGU`: “RBNS enrichment (R)” 0.452.
For `CGUGGCAACAUAUCUCUGUAAAAACAAACACUGUAACUUCUAAAUAAAUGUUUAGUCUUCCCUGUAACCUUCAAACUGAGUCAUGUGUGAGUCAGCAUUUUCUUUACAUG`, “RBNS enrichment (R)” read 0.323.
`UGGAUUCUCAGCUGCCUAAUCUGUACAUACCUGAUCCCUCGGGUUUUGUUUACAAGGAAUCUUGACUGACCAAAAGGCAUUGUAACUCUGCCACAGUACAAGGUACAGAG`: “RBNS enrichment (R)” 0.228.
Under “RBNS enrichment (R)”, `AUUGUACUCUUCUAGGCUGGACCGAAUUCAUAUGCAGAUUGAAGUGAGACCUGCUCUUUACAGAUGGUAUUUUGAUAGAUACUGGAGUUUGUCUGUAUUAUAUCUGUGCC` is recorded as 0.49.
For `UAGCCGGUGGGUGAGGAGAUUCCCACCUUCCAUAGCCUCCAAACAUGUUCCCAAGGCCCCACUUUCAAGAAUCAGACAGCAGGAAGCCAUAGAUGCUGGCUGGGUUCCAG`, “RBNS enrichment (R)” read 0.428.
For `UUUGUCACUGCCUAUACCUGCAGUUGAGCUGAAUGGUACUCCAUGUGUUAAUAAUUGUUCUGAUGAAUCAUACAGUUGAAAUAAAGUGACGUAACAUCUUGUAUACUGUG`, “RBNS enrichment (R)” read 1.17.

Study 2 — method: DHFR PCA, deep sequencing; sample: yeast; with: (+)-ABA 17 µM; relative to: wild-type fitted maximum; direction: higher = stronger binding
Target: ABI1, truncated, D143A, DHFR fusion (Arabidopsis thaliana)
Setting: methotrexate growth selection, single substitutions
Starting sequence: PYL1, truncated, DHFR fusion (Arabidopsis thaliana); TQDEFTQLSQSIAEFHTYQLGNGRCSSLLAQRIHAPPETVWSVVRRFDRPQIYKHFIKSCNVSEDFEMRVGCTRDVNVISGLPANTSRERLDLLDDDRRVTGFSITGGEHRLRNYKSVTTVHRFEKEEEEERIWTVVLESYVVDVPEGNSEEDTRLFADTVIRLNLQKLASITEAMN
`Y141G` — result for “relative binding score”: -3.4%.
Under “relative binding score”, `D159K` is recorded as 12.2%.
Under “relative binding score”, `K168P` is recorded as 3.57%.
`L20M`: “relative binding score” 79.6%.
For `I52C`, “relative binding score” read 80.3%.
Under “relative binding score”, `M68E` is recorded as 37.7%.
Under “relative binding score”, `S80Q` is recorded as 9.48%.
Under “relative binding score”, `E64K` is recorded as 87.4%.
Under “relative binding score”, `E139C` is recorded as 76%.
For `E109N`, “relative binding score” read 97.4%.
For `I52D`, “relative binding score” read 83.2%.
For `P50E`, “relative binding score” read -6.89%.

Study 3 — method: Sort-seq; item: YFP reporter; sample: E. coli; setting: PhoQ-PhoP variant library; with: 10 µM Mg2+; relative to: high Mg2+ state; direction: higher = stronger signaling
Molecule: PhoQ, residues 284 288 289 292 302 303 SSCCRF
The fold induction was 3.46 (PhoP, residues 12 14 15 18 19 LHTVL (Escherichia coli, UniProt P23836)).
It gave 23.6 for fold induction (PhoP, residues 12 14 15 18 19 TQAML (Escherichia coli, UniProt P23836)).
PhoP, residues 12 14 15 18 19 NQCAL (Escherichia coli, UniProt P23836) — fold induction: 19.4.

Study 4 — method: universal PBM; molecule type: double-stranded DNA, one strand shown; sample: in vitro; tested at: 600 nM; direction: higher = stronger binding
Target: Sal-like protein 4, full length isoform A (SALL4, Homo sapiens, UniProt Q9UJQ4, residues 1-1053)
UniProt Q9UJQ4, sequence (whole entry, looked up): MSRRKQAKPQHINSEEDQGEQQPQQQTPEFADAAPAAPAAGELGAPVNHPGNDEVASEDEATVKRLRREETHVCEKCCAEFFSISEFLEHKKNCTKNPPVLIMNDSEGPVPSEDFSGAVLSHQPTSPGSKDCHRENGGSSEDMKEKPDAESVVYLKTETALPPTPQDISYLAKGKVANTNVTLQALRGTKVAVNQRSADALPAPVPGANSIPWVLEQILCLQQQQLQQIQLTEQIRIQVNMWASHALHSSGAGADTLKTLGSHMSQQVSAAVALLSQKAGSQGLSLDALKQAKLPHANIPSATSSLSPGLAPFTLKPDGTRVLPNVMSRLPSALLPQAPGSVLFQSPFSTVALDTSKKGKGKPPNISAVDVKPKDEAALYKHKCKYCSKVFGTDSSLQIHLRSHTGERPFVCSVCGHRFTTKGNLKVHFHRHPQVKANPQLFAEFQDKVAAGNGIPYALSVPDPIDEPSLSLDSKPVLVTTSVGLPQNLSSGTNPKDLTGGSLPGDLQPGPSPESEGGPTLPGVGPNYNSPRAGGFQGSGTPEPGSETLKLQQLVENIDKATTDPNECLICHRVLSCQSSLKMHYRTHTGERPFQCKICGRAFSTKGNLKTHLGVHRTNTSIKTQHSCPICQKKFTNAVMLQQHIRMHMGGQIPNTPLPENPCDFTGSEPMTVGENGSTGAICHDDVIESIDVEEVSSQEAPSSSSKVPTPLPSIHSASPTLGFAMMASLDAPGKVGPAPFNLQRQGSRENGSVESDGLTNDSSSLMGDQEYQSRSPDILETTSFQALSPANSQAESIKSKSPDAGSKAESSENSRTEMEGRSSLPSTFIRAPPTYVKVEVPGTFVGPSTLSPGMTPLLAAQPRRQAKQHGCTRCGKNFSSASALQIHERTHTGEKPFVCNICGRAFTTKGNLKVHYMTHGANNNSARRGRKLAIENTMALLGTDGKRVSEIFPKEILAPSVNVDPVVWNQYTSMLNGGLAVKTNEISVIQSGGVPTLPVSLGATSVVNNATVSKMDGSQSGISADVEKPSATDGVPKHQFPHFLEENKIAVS
Setting: 8-mer, flanks averaged, mean of replicates
`CACGAAGA` has an E-score of 0.0438.
With `CCATAAGG` the E-score was 0.0654.
`CCCCAGTC` has an E-score of -0.23.
For `TACCCCTA`, the E-score was -0.0722.
`AATCTCCG` gave an E-score of -0.171.
`CGACATAA` has an E-score of 0.199.
For `ACACTATA`, the E-score was 0.305.
`CGAGATCC` gave an E-score of -0.277.
With `ATAGTTTG` the E-score was 0.21.
The E-score of `CGGCATGA` is reported as 0.0208.
With `GGAACCGA` the E-score was -0.234.
`GGGAAGAC` gave an E-score of -0.21.
`TCTTGCAA` has an E-score of 0.0543.
For `CGCATGAG`, the E-score was -0.0543.
`ACTGAGGC` gave an E-score of -0.0689.
The E-score of `ATCGTGGC` is reported as 0.0351.
`ATGCGACG` has an E-score of -0.11.
The E-score of `GGACGGCA` is reported as -0.173.

For quick reference, copied from above (study 4):
For `TACCCCTA`, the E-score was -0.0722.
With `GGAACCGA` the E-score was -0.234.
`CACGAAGA` has an E-score of 0.0438.
The E-score of `ATCGTGGC` is reported as 0.0351.
For `CGCATGAG`, the E-score was -0.0543.
